Experimental data from different studies.
Every numbered part comes from another study and shows a few of its results, in no order.
UniProt P10721, sequence (whole entry, unmodified, looked up): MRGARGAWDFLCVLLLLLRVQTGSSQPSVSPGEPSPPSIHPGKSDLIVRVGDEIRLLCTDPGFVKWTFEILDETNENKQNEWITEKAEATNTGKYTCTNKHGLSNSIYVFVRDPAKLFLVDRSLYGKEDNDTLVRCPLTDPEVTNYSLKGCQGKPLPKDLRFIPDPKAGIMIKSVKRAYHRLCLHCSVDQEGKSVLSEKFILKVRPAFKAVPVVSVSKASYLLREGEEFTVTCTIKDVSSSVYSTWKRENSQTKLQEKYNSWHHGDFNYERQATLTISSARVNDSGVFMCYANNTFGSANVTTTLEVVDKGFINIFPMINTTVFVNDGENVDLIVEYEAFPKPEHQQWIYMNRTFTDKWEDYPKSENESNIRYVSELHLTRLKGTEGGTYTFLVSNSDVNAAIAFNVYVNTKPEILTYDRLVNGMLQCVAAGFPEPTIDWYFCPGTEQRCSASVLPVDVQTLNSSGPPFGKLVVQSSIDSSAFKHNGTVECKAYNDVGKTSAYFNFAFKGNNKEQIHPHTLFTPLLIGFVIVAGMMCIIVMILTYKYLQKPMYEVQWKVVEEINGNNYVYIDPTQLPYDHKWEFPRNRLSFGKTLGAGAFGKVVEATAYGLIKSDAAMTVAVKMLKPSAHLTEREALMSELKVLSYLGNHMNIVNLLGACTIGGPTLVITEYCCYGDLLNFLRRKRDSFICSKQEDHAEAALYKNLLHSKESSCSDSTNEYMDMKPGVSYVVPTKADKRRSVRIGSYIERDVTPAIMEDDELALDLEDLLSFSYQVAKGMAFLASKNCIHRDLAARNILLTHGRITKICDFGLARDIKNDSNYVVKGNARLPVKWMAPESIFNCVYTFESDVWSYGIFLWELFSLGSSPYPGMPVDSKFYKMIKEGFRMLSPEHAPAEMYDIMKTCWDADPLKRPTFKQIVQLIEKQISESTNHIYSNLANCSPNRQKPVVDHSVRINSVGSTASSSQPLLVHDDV
UniProt Q8TDX7, sequence (whole entry, looked up): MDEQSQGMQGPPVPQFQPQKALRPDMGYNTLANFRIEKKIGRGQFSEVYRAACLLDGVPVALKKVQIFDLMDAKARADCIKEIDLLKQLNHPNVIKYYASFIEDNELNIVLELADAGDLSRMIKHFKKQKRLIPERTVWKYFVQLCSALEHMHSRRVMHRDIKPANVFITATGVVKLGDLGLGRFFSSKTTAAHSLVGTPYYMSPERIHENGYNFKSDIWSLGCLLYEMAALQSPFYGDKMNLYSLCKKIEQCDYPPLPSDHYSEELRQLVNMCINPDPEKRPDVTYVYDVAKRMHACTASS
UniProt P37023, sequence (whole entry, looked up): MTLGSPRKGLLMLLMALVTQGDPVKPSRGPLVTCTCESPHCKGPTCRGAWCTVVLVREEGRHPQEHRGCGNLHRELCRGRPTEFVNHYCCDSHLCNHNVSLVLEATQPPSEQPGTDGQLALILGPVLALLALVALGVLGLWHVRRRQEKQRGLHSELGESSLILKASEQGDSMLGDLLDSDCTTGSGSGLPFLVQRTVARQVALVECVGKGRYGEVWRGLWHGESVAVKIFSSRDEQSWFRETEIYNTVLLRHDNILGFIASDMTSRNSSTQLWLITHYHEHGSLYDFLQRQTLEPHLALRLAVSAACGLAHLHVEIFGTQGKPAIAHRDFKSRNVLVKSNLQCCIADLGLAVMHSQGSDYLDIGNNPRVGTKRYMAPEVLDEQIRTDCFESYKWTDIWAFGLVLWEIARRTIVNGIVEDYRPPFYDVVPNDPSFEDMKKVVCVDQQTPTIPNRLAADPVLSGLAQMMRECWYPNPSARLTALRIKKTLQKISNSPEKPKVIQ
UniProt Q92630, sequence (whole entry, looked up): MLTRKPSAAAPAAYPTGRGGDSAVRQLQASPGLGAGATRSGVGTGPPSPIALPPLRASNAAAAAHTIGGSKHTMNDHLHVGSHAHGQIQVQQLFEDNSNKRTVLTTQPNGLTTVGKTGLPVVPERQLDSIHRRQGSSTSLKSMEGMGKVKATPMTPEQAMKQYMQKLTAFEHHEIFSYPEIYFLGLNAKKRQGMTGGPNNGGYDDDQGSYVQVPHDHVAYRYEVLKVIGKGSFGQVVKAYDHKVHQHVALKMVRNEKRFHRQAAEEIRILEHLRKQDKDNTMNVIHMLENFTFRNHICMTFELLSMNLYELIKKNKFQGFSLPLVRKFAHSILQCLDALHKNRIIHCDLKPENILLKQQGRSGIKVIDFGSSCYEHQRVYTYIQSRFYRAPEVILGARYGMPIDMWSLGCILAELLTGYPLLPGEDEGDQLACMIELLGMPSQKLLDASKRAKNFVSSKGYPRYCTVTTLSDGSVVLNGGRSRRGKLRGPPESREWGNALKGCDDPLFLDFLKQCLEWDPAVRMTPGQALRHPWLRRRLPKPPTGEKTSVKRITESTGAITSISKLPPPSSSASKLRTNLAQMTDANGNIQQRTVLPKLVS
UniProt Q8IYT8, sequence (whole entry, looked up): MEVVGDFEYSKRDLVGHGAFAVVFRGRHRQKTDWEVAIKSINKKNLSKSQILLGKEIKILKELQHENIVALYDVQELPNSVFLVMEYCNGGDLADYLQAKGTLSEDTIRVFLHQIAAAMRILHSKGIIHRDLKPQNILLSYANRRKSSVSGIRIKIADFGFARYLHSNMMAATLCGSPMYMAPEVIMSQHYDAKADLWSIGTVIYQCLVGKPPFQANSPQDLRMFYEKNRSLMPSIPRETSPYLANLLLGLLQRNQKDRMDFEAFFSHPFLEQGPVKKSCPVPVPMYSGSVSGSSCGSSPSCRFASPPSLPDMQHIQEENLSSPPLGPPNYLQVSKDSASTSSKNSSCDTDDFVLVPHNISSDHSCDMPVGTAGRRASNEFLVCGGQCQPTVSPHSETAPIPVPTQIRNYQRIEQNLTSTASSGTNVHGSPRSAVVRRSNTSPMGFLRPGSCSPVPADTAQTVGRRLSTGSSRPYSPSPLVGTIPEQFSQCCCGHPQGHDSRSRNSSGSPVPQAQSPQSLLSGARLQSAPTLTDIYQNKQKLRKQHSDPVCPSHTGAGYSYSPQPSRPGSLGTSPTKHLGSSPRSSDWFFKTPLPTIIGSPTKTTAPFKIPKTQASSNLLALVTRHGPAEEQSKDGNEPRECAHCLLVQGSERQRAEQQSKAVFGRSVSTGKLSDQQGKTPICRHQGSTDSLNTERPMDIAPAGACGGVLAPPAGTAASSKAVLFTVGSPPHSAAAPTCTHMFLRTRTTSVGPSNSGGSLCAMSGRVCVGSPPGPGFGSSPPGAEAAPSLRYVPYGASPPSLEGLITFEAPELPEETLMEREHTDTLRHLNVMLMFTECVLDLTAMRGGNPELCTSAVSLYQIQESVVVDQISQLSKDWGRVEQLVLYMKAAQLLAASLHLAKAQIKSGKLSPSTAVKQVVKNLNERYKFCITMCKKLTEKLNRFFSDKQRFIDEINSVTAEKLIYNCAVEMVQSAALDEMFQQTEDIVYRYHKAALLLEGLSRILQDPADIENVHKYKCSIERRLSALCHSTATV

Set 1 — effect on: enzyme activity; tested at: 5 µM; relative to: untreated control
SMILES: O=C(Nc1cnn(-c2csc(C(=O)NC3COC3)c2)c1)Nc1ccccc1Cl
target | remaining activity
NEK7 (Homo sapiens, UniProt Q8TDX7) | 101%
CILK1 (Homo sapiens, UniProt Q9UPZ9) | 112%
VRK2 (Homo sapiens, UniProt Q86Y07) | 103%

Set 2 — action: agonist
Target: Beta-1 adrenergic receptor (ADRB1, Homo sapiens, UniProt P08588)
UniProt P08588, sequence (whole entry, looked up): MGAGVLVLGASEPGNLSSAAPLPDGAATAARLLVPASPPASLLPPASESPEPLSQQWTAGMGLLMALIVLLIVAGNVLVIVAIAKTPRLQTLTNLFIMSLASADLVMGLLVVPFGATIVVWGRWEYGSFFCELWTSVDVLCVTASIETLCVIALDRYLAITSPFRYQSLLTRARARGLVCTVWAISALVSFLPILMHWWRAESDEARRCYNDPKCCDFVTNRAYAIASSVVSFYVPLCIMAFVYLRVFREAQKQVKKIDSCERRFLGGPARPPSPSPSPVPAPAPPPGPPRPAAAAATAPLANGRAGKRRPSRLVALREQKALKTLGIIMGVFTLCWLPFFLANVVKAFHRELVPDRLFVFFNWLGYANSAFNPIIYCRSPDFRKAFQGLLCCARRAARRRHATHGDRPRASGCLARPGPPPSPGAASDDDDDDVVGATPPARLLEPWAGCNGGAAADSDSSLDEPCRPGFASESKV
Structure (SMILES) | EC50 [µM]
O=C1Nc2ccc(I)cc2/C1=C/c1cc(Br)c(O)c(Br)c1 | ≥ 100
COc1ccccc1CN1C(=O)COC[C@@H]1[C@H](O)c1ccc(NC(=O)CCc2ccccc2)cc1 | ≥ 100
N#Cc1cc2c(nc1N1CCCC(COc3ncccc3C(F)(F)F)C1)CCOC2 (centres unmarked) | ≥ 100
Cc1cccc(NC(=O)COc2ccc3c(C)cc(=O)oc3c2)c1 | ≥ 100
Cc1ccc2c(CSc3nnnn3Cc3ccco3)cc(=O)oc2c1 | ≥ 100
O=C1COc2ccc(-c3ccsc3)nc2CN1 | ≥ 100
O=C1NCCCc2[nH]c(-c3cnn(-c4cccc(F)c4)c3)nc21 | ≥ 100
COc1ccc(-c2cc(N3CCCC3)nc(N)n2)c2ccc(C)nc12 | ≥ 100

Set 3 — effect on: enzyme activity; action: inhibitor; tested at: 0.5 µM; relative to: control
Target: Fibroblast growth factor receptor 1 (FGFR1, Homo sapiens, UniProt P11362)
UniProt P11362, sequence (whole entry, looked up): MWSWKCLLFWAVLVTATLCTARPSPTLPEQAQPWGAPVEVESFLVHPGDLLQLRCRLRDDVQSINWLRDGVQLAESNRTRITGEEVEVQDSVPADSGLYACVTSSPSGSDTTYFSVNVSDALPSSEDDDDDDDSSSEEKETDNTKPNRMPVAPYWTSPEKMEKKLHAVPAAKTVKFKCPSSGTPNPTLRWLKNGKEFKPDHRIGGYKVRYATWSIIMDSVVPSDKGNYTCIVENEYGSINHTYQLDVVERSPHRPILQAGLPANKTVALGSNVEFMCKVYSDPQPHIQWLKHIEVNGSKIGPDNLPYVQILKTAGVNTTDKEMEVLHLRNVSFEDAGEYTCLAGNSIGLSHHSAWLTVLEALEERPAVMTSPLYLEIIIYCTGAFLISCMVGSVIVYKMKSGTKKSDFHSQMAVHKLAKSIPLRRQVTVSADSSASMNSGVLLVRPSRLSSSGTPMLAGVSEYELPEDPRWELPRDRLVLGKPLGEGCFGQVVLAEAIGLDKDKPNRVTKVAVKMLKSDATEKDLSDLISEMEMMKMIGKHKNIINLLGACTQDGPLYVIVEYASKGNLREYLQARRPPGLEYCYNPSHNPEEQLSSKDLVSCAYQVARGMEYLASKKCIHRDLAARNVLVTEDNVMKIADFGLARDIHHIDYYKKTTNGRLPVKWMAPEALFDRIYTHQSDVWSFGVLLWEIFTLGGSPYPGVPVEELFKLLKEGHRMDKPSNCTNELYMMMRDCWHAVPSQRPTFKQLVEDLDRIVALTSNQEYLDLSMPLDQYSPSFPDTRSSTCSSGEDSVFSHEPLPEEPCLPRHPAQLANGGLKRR
Compound | remaining activity [%]
CNC(=O)c1cc(Oc2ccc(NC(=O)Nc3ccc(Cl)c(C(F)(F)F)c3)cc2)ccn1 | 90.9
Cn1sc(=O)n(Cc2ccccc2)c1=O | 95.6
N#CC(C#N)=C(N)/C(C#N)=C/c1ccc(O)cc1 | 95.3
CO[C@H]1C[C@@H]2CC[C@@H](C)[C@@](O)(O2)C(=O)C(=O)N2CCCC[C@H]2C(=O)O[C@H]([C@H](C)C[C@@H]2CC[C@@H](O)[C@H](OC)C2)CC(=O)[C@H](C)/C=C(\C)[C@@H](O)[C@@H](OC)C(=O)[C@H](C)C[C@H](C)/C=C/C=C/C=C/1C | 89.4
O=S(=O)(c1cccc2cnccc12)N1CCCNCC1 | 94.6
COc1ccc(CNC(=O)Nc2ncc([N+](=O)[O-])s2)cc1 | 98.9
CN(C)c1ccc(C=C2C(=O)Nc3ccccc32)cc1 | 92
Nc1[nH]nc2nc3ccccc3nc12 | 93.9
Nc1ncnc2n[nH]c(Nc3ccc(F)cc3)c12 | 91.2
O=C(O)c1ccc2c3c1cccc3c(=O)n1c3ccccc3nc21 | 84.7

Set 4 — tested at: 1 µM
Structure (SMILES): CN([C@@H]1CCc2c(CC(=O)O)c3ccccc3n2C1)S(=O)(=O)c1ccc(F)cc1
target | test | remaining binding [%]
ACVRL1 (Homo sapiens, UniProt P37023) | cell-free assay, competition with immobilised ligand | 88
KIT (Homo sapiens, UniProt P10721, V559D) | cell-free assay, competition with immobilised ligand | 100
DYRK2 (Homo sapiens, UniProt Q92630) | cell-free assay, competition with immobilised ligand | 95
MYLK3 (Homo sapiens, UniProt Q32MK0) | cell-free assay, competition with immobilised ligand | 95
PRKAA1 (Homo sapiens, UniProt Q13131) | cell-free assay, competition with immobilised ligand | 100
ULK2 (Homo sapiens, UniProt Q8IYT8) | cell-free assay, competition with immobilised ligand | 100
Mast/stem cell growth factor receptor Kit, autoinhibited (KIT, Homo sapiens, UniProt P10721) | cell-free assay, competition with immobilised ligand | 96
CDC42BPG (Homo sapiens, UniProt Q6DT37) | competition binding | 100

For quick reference, copied from above (set 2):
Structure (SMILES) | EC50 [µM]
O=C1Nc2ccc(I)cc2/C1=C/c1cc(Br)c(O)c(Br)c1 | ≥ 100
COc1ccccc1CN1C(=O)COC[C@@H]1[C@H](O)c1ccc(NC(=O)CCc2ccccc2)cc1 | ≥ 100
N#Cc1cc2c(nc1N1CCCC(COc3ncccc3C(F)(F)F)C1)CCOC2 (centres unmarked) | ≥ 100
